Results pooled from the literature.
Compare with care: the assays were run in different laboratories. Values joined by “and” are separate records of one study, mostly repeats; a detail may differ. Numbers after ± are the reported error. ≈ marks a conversion by molar mass, not a printed value.
Cell line: HUVEC

COc1ccc(CC[C@H]2OC(=O)[C@@H]3CCCCN3C(=O)C(=O)C(C)(C)COC(=O)C=CCCN(C)C(=O)[C@H](CC(C)C)N(C)C(=O)[C@H]3CCCN3C(=O)[C@H](Cc3ccccc3)N(C)C(=O)[C@H](Cc3ccc(F)cc3)NC(=O)CCC(=O)Nc3cccc2c3)cc1OC gave an IC50 of 11.1 ± 0.1 µM (thymidine uptake, inhibitor).
CC[C@H](C)[C@H](NC(=O)C[C@H](CCCCN)NC(=O)[C@H](CCCCN)NC(=O)C[C@@H](NC(=O)[C@@H](NC(=O)C[C@H](CCCCN)NC(=O)[C@H](Cc1ccccc1)NC(=O)C[C@H](CC(C)C)NC(=O)CN)[C@@H](C)CC)[C@@H](C)CC)C(=O)N[C@H](CC(=O)N[C@@H](CCCCN)C(=O)N[C@H](CC(=O)N[C@@H](Cc1ccccc1)C(N)=O)CC(C)C)CC(C)C has an IC50 of 5.4 µg/mL (cytotoxicity).
Cc1ccc2c(c1C#Cc1ccc(O)cc1)C(c1ccc(O)cc1)(c1ccc(O)cc1)c1cc(O)ccc1-2 has an IC50 of greater than 50 µM (cell growth or viability, MTT; 48 h).
With COc1ccc(CC[C@H]2OC(=O)[C@@H]3CCCCN3C(=O)C(=O)C(C)(C)COC(=O)C=CCCN(C)C(=O)[C@H](CC(C)C)N(C)C(=O)[C@H]3CCCN3C(=O)[C@H](Cc3cccc4ccccc34)NC(=O)[C@H](c3ccccc3)NC(=O)CCC(=O)Nc3cccc2c3)cc1OC the IC50 was 0.088 ± 0.025 µM (thymidine uptake, inhibitor).
O=Cc1ccc2c(c1C#Cc1ccc(O)cc1)C(c1ccc(O)cc1)(c1ccc(O)cc1)c1cc(O)ccc1-2 has an IC50 of greater than 50 µM (cell growth or viability, MTT; 48 h).
For COc1ccc(CC[C@H]2OC(=O)[C@@H]3CCCCN3C(=O)C(=O)C(C)(C)COC(=O)C=CCCN(C)C(=O)[C@H](CC(C)C)N(C)C(=O)[C@H]3CCCN3C(=O)[C@H](Cc3ccccc3)N(C)C(=O)[C@H](Cc3cccc4ccccc34)NC(=O)CCC(=O)Nc3cccc2c3)cc1OC, the IC50 was greater than 20 µM (thymidine uptake, inhibitor).
With CC[C@H](C)[C@H](NC(=O)C[C@H](CCCCN)NC(=O)[C@H](CCCCN)NC(=O)C[C@@H](NC(=O)[C@@H](NC(=O)C[C@H](CCCCN)NC(=O)[C@H](Cc1ccccc1)NC(=O)C[C@H](CC(C)C)NC(=O)CN)[C@@H](C)CC)[C@@H](C)CC)C(=O)N[C@H](CC(=O)N[C@@H](CCCCN)C(=O)N[C@@H](CO)CC(=O)N[C@@H](Cc1ccccc1)C(N)=O)CC(C)C the IC50 was 23.4 µg/mL (cytotoxicity).
With COc1ccc(CC[C@H]2OC(=O)[C@@H]3CCCCN3C(=O)C(=O)C(C)(C)COC(=O)/C=C/CCN(C)C(=O)[C@H](CC(C)C)N(C)C(=O)[C@@H]3CCCN3C(=O)[C@H](Cc3ccccc3)N(C)C(=O)[C@H](c3ccccc3)NC(=O)CCC(=O)Nc3cccc2c3)cc1OC the IC50 was 0.0062 ± 0.0013 µM ([3H]thymidine incorporation).
With CC[C@H](C)[C@H](NC(=O)[C@H](CCCCN)NC(=O)[C@H](CCCCN)NC(=O)C[C@@H](NC(=O)[C@@H](NC(=O)[C@H](CCCCN)NC(=O)[C@H](Cc1ccccc1)NC(=O)C[C@H](CC(C)C)NC(=O)CN)[C@@H](C)CC)[C@@H](C)CC)C(=O)N[C@@H](C)CC(=O)N[C@@H](CCCCN)C(=O)N[C@@H](CO)C(=O)N[C@@H](Cc1ccccc1)C(N)=O the IC50 was greater than 128 µg/mL (cytotoxicity).
O=Cc1ccc(-c2ccc(O)cc2)c(C(=C2C=CC(=O)C=C2)c2ccc(O)cc2)c1C#Cc1ccc(O)cc1 gave an IC50 of greater than 50 µM (cell growth or viability, MTT; 48 h).
O=C(NCc1cc(F)cc(F)c1)[C@@]1(O)CCN(c2ccc3[nH]ccc3c2)C1=O: “inhibition of tube formation” roughly 50% (Matrigel tube formation, measured: total tube length; 10 µM, no pretreatment).
CC[C@H](C)[C@H](NC(=O)[C@H](CCCCN)NC(=O)[C@H](Cc1ccccc1)NC(=O)[C@H]1CCC[C@@H]1NC(=O)CN)C(=O)N[C@H](CC(=O)N[C@@H](CCCCN)C(=O)N[C@@H](CCCCN)C(=O)N[C@H](CC(=O)N[C@@H](CC(C)C)C(=O)N[C@@H](CCCCN)C(=O)N[C@@H](CC(C)C)C(=O)N[C@H](CC(N)=O)Cc1ccccc1)[C@@H](C)CC)[C@@H](C)CC has an IC50 of 3.6 µg/mL (cytotoxicity).
COc1ccc(NC(=O)c2ccc3[nH]c(-c4ccc(N(C)C)cc4)nc3c2)cn1 gave a caspase-3/7 activity of 0.568 and 0.583 and 0.945 (Caspase-Glo; 8 µM, 16 h, unit not given; baseline: DMSO).
C/C1=C/[C@H](C)C[C@H](C)OC(=O)C[C@H](c2ccc(O)cc2)NC(=O)[C@@H](Cc2ccc(O)cc2)N(C)C(=O)[C@H](C)NC(=O)[C@@H](C)C1 has a GI50 of 35 µg/mL (≈ 57.6 µM) (cell growth or viability).
COCC[C@@H]1NC(=O)[C@@H](Cc2ccccc2)N(C)C(=O)[C@@H]2CCCN2C(=O)[C@H](CC(C)C)N(C)C(=O)CCC(=O)Nc2cccc(c2)[C@@H](CCc2ccc(OC)c(OC)c2)OC(=O)[C@@H]2CCCCN2C(=O)C(=O)C(C)(C)COC(=O)C=CCCN(C)C1=O has an IC50 of 1.1 ± 0.3 µM (thymidine uptake, inhibitor).
CC[C@H](C)[C@H](NC(=O)[C@H](CCCCN)NC(=O)[C@H]1CCC[C@@H]1NC(=O)[C@H](CC(C)C)NC(=O)CN)C(=O)N[C@H](CC(=O)N[C@@H](CCCCN)C(=O)N[C@@H](CCCCN)C(=O)N[C@H]1CCC[C@@H]1C(=O)N[C@@H](CC(C)C)C(=O)N[C@@H](CCCCN)C(=O)N[C@H](CC(=O)N[C@@H](Cc1ccccc1)C(N)=O)CC(C)C)[C@@H](C)CC has an IC50 of 8 µg/mL (cytotoxicity).
CNC(NN=Cc1ccc([N+](=O)[O-])o1)=[S+][Au-][Cl] has an inhibition of 40% (tube branching nodes, tube formation; IC10, 16 h; baseline: untreated).
